# Experimental data from different studies.
# ± marks the error that the study gave.
Structure (SMILES),assay,test system,setting,quantity,result
COc1cc2c(Oc3ccc4[nH]c(C)cc4c3F)ccnc2cc1OCC1(N)CC1,,paediatric recurrent refractory sarcoma,10 mg,grade 3 Appendicitis,0%
O=C(Nc1ccccc1)C1CCN(C(=O)Oc2cccnc2)CC1,adverse event reporting,healthy women,"oral, 60 mg, 7 days",subjects with affect lability,7.1%
Cc1cc(C)c(CNC(=O)c2cc(Cl)c3c(c2C)O[C@@](C)([C@H]2CC[C@H](N(C)C)CC2)O3)c(=O)[nH]1,,relapsed/refractory NHL patients,"dose not given, trial, safety set, treatment-related TEAE grade 5",incidence of dry skin,0%
CCCc1cc(O)c(C/C=C(\C)CCC=C(C)C)c(O)c1C(=O)O,LC-MS/MS,"Scn1a+/− mice, plasma","intraperitoneal, 10 mg/kg, after hyperthermia protocol",plasma concentration,106 ± 16 µg/mL
CC(C)N(N=O)C(C)C,,water,up to 5000 µg/plate,Ames mutagenicity,positive
CCc1ccc(CC/C=C/c2ccc3c(c2)C(=O)CC3)cc1,,"Sprague-Dawley rat, female, serum","oral, 30 mg/kg/day, 14 days",creatinine,25.7 µM
CC(C)(C(=O)NC1C2CC3CC1CC(C(N)=O)(C3)C2)N1CCN(c2ccc(C(F)(F)F)cn2)CC1 (stereo not shown),,"human, plasma","50 mg once daily, 5 days, median",dose-normalised free Cmax,0.118 (ng/mL)/mg
CCCCCCCCCCC[C@H](OC1OC[C@H](O)[C@@H](O)[C@@H]1O)[C@H](O)[C@H](O)C[C@@H]1CC(=O)N[C@H](CO)C(=O)N[C@H]([C@H](O)c2ccc(O)cc2)C(=O)N[C@H](CCN)C(=O)NCC(=O)N[C@@H](CC(N)=O)C(=O)N[C@@H](CO)C(=O)N[C@@H]([C@H](O)C(N)=O)C(=O)N1 (stereo partly shown),LC-MS/MS,"rabbit plasma, sodium citrate","200 ng/mL, room temperature","measured concentration, benchtop",151 ng/mL
CCC(CC)O[C@@H]1C=C(C(=O)O)C[C@H](N)[C@H]1NC(C)=O,,"Sprague-Dawley rat male, plasma and urine","oral, 30 mg/kg",elimination rate constant,0.851 h⁻¹
C[C@]1(CO)Cc2ncn(-c3ccc(C#N)c(Cl)c3)c2C(=O)O1,,human,"oral, 10 mg, high-fat breakfast, adjusted geometric mean",Cmax,335 nM
Cn1cncc1-c1c(F)cncc1NC(=O)c1c(N)nn2cc(F)cnc12,,human patients,"oral, 180 mg once daily",grade ≥3 hyponatraemia incidence,0%
CN1CC[C@@H](c2c(O)cc(O)c3c(=O)cc(-c4ccc(C(F)(F)F)cc4Cl)oc23)[C@@H]1CO,item: Epistaxis,relapsed B-cell malignancies or AML,"oral, 100 mg, grade 3-4, continuous dosing",patients with adverse event,0%
CO[C@H]1C[C@@H]2CC[C@@H](C)[C@@](O)(O2)C(=O)C(=O)N2CCCC[C@H]2C(=O)O[C@H]([C@H](C)C[C@@H]2CC[C@@H](OC(=O)NCCOCCOCCOCCOCCOCCOCCOCCOCCC(=O)N3CCc4cc(Cn5nc(-c6ccc7oc(N)nc7c6)c6c(N)ncnc65)ccc4C3)[C@H](OC)C2)C[C@@H](O)[C@H](C)/C=C(\C)[C@@H](O)[C@@H](OC)C(=O)[C@H](C)C[C@H](C)/C=C/C=C/C=C/1C,"phase 1 dose escalation, item: gastric haemorrhage",advanced solid tumour patients,"intravenous, 10 mg weekly, any grade",dose-reducing adverse events,0%
